Measured values collected from several papers.
Protocols differ between the studies behind these lines. Values joined by “and” are separate records of one study, mostly repeats; a detail may differ. ± gives the spread as reported.
CASP1: Caspase-1 (CASP1, Homo sapiens, UniProt P29466)
UniProt P29466, sequence (whole entry, looked up): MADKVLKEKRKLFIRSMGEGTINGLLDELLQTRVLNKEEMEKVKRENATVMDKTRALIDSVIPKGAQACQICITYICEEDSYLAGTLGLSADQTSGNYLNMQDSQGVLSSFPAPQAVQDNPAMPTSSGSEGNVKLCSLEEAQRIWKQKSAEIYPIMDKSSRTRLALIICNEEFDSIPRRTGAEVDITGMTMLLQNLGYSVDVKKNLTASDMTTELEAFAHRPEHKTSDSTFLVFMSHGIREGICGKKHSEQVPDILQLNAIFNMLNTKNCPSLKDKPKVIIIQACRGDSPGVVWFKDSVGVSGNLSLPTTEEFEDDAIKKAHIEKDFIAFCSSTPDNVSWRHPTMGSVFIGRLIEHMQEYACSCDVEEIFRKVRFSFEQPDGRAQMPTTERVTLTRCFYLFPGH
CHRM4: Muscarinic acetylcholine receptor M4 (CHRM4, Homo sapiens, UniProt P08173)
UniProt P08173, sequence (whole entry, looked up): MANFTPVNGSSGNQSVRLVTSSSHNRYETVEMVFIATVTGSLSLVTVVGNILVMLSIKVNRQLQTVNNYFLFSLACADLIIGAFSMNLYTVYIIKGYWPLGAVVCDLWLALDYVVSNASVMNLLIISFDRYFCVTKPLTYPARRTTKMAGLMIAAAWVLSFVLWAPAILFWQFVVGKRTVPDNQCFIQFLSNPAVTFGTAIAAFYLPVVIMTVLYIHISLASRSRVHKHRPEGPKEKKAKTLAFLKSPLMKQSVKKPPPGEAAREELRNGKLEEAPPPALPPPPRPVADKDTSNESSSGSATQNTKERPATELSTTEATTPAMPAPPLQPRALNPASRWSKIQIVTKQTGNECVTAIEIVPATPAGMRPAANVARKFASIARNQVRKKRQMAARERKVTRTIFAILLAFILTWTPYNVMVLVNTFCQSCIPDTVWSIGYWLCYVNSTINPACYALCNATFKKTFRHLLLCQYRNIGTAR
FUT9: 4-galactosyl-N-acetylglucosaminide 3-alpha-L-fucosyltransferase 9 (FUT9, Homo sapiens, UniProt Q9Y231)
UniProt Q9Y231, sequence (whole entry, looked up): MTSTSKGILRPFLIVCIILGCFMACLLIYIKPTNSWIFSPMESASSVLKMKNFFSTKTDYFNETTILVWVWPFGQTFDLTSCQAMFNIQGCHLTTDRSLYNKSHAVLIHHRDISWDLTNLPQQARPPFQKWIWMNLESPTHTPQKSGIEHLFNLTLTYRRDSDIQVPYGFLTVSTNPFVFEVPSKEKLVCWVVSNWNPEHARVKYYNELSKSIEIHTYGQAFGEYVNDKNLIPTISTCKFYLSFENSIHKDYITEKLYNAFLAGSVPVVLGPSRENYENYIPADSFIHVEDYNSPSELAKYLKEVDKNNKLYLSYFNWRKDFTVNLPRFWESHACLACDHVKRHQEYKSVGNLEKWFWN
TACR1: Substance-P receptor (TACR1, Homo sapiens, UniProt P25103)
UniProt P25103, sequence (whole entry, looked up): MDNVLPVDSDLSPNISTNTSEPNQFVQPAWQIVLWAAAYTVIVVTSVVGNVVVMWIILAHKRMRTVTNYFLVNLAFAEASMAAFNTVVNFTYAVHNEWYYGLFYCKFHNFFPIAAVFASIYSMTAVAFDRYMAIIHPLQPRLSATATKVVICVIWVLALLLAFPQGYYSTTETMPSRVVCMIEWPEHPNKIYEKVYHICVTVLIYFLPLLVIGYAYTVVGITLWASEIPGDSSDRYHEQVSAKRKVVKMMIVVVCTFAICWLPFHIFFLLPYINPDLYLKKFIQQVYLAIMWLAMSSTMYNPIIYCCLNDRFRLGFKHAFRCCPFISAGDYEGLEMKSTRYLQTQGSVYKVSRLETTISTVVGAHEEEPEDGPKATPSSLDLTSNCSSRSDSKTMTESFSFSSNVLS
Hypoxanthine-guanine-xanthine phosphoribosyltransferase: Hypoxanthine-guanine-xanthine phosphoribosyltransferase (Plasmodium falciparum, UniProt P20035)
UniProt P20035, sequence (whole entry, looked up): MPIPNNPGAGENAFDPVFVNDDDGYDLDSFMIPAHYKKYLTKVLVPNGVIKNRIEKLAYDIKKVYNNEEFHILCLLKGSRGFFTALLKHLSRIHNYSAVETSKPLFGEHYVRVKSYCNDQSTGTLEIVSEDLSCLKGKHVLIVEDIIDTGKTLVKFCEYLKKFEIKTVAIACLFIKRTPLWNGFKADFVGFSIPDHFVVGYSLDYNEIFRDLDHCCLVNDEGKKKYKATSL
Htr1a: 5-hydroxytryptamine receptor 1A (Htr1a, Rattus norvegicus, UniProt P19327)
UniProt P19327, sequence (whole entry, looked up): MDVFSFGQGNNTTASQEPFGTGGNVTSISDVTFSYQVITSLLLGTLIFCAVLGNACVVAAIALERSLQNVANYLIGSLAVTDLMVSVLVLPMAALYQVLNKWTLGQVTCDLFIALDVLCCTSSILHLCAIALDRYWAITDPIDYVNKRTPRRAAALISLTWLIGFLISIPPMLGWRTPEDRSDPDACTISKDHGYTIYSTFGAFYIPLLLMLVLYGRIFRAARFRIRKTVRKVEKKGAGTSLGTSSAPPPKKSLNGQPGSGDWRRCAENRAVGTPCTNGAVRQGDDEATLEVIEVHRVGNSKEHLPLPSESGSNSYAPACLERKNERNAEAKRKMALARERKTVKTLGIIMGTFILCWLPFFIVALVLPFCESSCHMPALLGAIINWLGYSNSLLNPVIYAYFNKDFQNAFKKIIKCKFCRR
Beta-lactamase CTX-M-14: Beta-lactamase CTX-M-14 (Escherichia coli, UniProt Q9L5C7)
MAPK8: Mitogen-activated protein kinase 8 (MAPK8, Homo sapiens, UniProt P45983)
UniProt P16296, sequence (whole entry, looked up): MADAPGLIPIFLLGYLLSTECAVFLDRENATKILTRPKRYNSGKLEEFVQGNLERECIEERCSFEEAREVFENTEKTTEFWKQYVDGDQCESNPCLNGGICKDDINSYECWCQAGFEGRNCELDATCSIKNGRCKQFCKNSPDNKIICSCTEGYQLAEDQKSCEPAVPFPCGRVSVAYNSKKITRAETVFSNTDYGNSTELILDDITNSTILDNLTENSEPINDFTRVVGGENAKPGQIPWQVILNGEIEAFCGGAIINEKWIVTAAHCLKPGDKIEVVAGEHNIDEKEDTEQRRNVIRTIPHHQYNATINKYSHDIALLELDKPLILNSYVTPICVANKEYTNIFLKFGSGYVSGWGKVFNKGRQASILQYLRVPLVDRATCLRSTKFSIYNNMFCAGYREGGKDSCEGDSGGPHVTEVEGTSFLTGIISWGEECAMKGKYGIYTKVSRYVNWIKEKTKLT
UniProt P45983, sequence (whole entry, looked up): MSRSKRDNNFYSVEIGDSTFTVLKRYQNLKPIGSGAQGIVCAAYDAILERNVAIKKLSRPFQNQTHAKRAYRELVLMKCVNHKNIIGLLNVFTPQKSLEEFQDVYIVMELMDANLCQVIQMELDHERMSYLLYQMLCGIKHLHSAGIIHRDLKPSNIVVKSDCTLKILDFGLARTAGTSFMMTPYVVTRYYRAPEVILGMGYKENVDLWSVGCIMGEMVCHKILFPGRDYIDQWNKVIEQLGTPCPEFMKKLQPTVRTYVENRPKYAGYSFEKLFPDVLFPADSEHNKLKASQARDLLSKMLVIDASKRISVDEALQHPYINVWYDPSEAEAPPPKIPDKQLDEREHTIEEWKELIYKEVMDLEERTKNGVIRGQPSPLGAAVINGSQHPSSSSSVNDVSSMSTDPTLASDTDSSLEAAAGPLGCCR
UniProt P14842, sequence (whole entry, looked up): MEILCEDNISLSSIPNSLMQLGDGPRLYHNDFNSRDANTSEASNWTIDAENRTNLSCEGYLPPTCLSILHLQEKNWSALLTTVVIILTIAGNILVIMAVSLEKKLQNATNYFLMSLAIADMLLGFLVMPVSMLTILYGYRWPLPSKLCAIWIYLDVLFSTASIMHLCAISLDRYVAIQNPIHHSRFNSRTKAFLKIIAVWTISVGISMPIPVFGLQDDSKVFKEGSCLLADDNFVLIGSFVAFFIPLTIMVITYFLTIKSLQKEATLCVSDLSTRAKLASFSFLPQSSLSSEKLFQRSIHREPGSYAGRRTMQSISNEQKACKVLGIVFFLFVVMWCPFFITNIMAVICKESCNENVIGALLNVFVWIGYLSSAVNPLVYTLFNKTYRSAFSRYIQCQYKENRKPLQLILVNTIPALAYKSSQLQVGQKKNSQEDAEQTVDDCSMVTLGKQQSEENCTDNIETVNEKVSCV
UniProt P56726, sequence (whole entry, looked up): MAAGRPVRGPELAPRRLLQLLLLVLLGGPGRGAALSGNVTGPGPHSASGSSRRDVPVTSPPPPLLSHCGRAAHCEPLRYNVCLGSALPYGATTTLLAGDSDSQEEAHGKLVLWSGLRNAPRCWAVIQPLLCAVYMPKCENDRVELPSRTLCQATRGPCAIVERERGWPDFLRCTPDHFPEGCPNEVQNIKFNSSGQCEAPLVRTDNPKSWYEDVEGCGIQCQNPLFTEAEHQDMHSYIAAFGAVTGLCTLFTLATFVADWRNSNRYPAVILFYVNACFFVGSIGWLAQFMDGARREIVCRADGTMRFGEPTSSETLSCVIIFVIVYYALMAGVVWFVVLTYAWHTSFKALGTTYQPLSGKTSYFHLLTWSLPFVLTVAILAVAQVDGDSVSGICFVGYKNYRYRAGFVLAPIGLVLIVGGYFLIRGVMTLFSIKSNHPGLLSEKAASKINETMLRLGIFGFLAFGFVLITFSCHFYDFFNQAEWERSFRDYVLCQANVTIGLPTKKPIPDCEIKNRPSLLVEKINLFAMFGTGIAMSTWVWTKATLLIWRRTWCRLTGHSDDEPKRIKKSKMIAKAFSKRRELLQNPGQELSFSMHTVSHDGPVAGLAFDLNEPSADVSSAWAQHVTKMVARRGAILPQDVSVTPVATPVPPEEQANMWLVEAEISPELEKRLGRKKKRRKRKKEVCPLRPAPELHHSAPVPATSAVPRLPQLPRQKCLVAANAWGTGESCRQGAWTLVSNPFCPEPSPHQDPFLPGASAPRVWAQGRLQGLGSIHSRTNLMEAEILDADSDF
UniProt Q9Y5N1, sequence (whole entry, looked up): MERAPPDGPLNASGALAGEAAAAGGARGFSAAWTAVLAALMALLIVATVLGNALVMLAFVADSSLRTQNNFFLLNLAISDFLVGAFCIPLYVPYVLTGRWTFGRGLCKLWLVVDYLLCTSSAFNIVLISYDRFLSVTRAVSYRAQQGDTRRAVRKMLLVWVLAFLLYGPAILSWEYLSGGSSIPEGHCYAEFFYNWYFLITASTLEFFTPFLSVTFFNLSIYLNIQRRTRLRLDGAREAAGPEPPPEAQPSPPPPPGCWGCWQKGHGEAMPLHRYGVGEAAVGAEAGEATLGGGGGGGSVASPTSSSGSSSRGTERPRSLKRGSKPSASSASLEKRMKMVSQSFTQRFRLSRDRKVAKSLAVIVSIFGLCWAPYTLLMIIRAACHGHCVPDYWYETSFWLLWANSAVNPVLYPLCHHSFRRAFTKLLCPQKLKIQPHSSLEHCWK

N=C(N)NCCC[C@H](NC(=O)[C@@H](N)Cc1ccccc1)C(=O)NCCOCCOCC(=O)NCC(=O)N1CC[C@H](F)C1  Ki (FAP (Homo sapiens, UniProt Q12884); enzyme activity, inhibitor, fluorescence; pH 7.5): 55300 nM
CC(=O)N[C@@H](CC(=O)O)C(=O)N[C@H](C(=O)N1CCC[C@H]1C(=O)N[C@H](C=O)CC(=O)O)C(C)C  Ki (CASP1; enzyme activity, inhibitor, fluorescence; pH 7): 70.8 nM
C[C@H](CCC(=O)O)[C@H]1CC[C@H]2[C@@H]3[C@@H](OC(=O)c4ccccc4)C[C@H]4C[C@H](O)CC[C@]4(C)[C@H]3CC[C@]12C  Ki (SLC10A1 (Homo sapiens, UniProt Q14973); transporter uptake, inhibitor, radiometric): 24400 nM
CC[C@H](C)[C@H](NC(C)=O)C(=O)N[C@H](C(=O)N[C@H](C(=O)N[C@@H](CN)C(=O)N[C@H](C=O)CC(=O)O)C(C)C)[C@@H](C)O  Ki (CASP1; enzyme activity, inhibitor, fluorescence; pH 7): 1510 nM
Cc1cc(OCCCN2CCN(c3cccc4sccc34)CC2)ccc1CN1CCCC1  Ki (5-hydroxytryptamine receptor 2A (Rattus norvegicus, UniProt P14842); cell-free assay): 276 nM
CNC1CCC(N(Cc2cccc(-c3ccncc3)c2)C(=O)c2sc3ccccc3c2Cl)CC1 (centres unmarked)  Ki (Protein smoothened (Smo, Mus musculus, UniProt P56726); ligand displacement, radioligand; cell membranes): 8.4 nM
O=C1Nc2ccccc2N(C(=O)CN2CCC(CCCCNCCCCC3CCN(CCCN4C(=O)CCc5ccccc54)CC3)CC2)c2ccccc21  Ki (CHRM4; ligand displacement, radioligand): 3.31 nM
Nc1nc2c(ncn2[C@@H]2O[C@H](COP(=O)(O)OP(=O)(O)O[C@H]3O[C@@H](CNC(=O)c4ccccc4)[C@@H](O)[C@@H](O)[C@@H]3F)[C@@H](O)[C@H]2O)c(=O)[nH]1  Ki (FUT9; enzyme activity, inhibitor): 28100 nM
CCCCCCCCCCCCCC[C@@H](O)[C@@H](O)[C@H](CO[C@H]1O[C@H](CO)[C@H](O)[C@H](O)[C@H]1O)NC(=O)CCCCCCCCCCc1ccc(OC)cc1  Ki (Cd1d1 (Mus musculus, UniProt P11609); competitive binding on microarray; with: surface-printed ligand): 660 ± 130 nM
NC(CC(=O)c1cccc(O)c1)C(=O)O (centres unmarked)  Ki (Kynureninase (kynU, Pseudomonas fluorescens, UniProt P83788); inhibitor, Dixon plot): 100 nM
CC(C)C[C@H](NC(=O)[C@H](CCCCN)NC(=O)[C@H](CCCCN)NC(=O)[C@H](C)NC(=O)[C@H](CCCCN)NC(=O)[C@H](CCCCN)NC(=O)[C@@H]1CCCN1C(=O)[C@H](C)NC(=O)[C@H](CCCCN)NC(=O)[C@@H]1CCCN1)C(=O)O  Ki (Cyclin-dependent kinase 5, with p25 (CDK5, Homo sapiens, UniProt Q00535); inhibitor; 0.2 mM Mg2+, with: ATP varied): 600000 ± 300000 nM
Cc1ccccc1-c1cc(N2CCN(Cc3ccccc3)CC2)ccc1N(C)C(=O)C(C)(C)c1cc(C(F)(F)F)cc(C(F)(F)F)c1  Ki (TACR1; cell-free assay; pH 6): 4.4 nM
Nc1nc2c(CNCCCP(=O)(O)O)c[nH]c2c(=O)[nH]1  Ki (Hypoxanthine-guanine-xanthine phosphoribosyltransferase; enzyme activity, inhibitor; pH 7.4): 107 nM
Cc1cc(CN2CCCC2)ccc1OCCCN1CCN(c2cccc3sccc23)CC1  Ki (Htr1a; cell-free assay, radioligand): 155 nM
CC(=O)NCC1OC(OP(=O)(O)OP(=O)(O)OCC2OC(n3cnc4c(=O)[nH]c(N)nc43)C(O)C2O)C(F)C(O)C1O (centres unmarked)  Ki (FUT9; enzyme activity, inhibitor): 21500 nM
COc1cccc(CNC[C@@H](O)[C@H](Cc2ccccc2)NC(=O)c2cc(C(=O)N[C@H](C)c3ccccc3)cc(N(C)S(C)(=O)=O)c2)c1  Ki (Beta-secretase 2 (BACE2, Homo sapiens, UniProt Q9Y5Z0)): 137 nM
Cc1ccccc1-c1cc(N2CCN(C)CC2)ccc1N(C)C(=O)C(C)(C)c1cc(C(F)(F)F)cc(C(F)(F)F)c1  Ki (TACR1; binding): 2.57 nM
Clc1cc(CN2CCCC2)ccc1OCCCN1CCN(c2cccc3sccc23)CC1  Ki (Htr1a; cell-free assay, radioligand): 157 nM
CCC(=O)NCc1cc(C(=O)NCCN2CCC(OC(=O)C(c3ccccc3)c3ccccc3)CC2)cc(C(=O)NCCN2CCN(CCCCC3CCN(CC(=O)N4c5ccccc5NC(=O)c5ccccc54)CC3)CC2)c1  Ki (CHRM4; ligand displacement, radioligand): 3.16 nM
OCC1OC(Oc2ccc(C=Cc3cc(O)cc(O)c3)cc2)C(O)C(O)C1O (centres unmarked)  Ki (XDH (Bos taurus, UniProt P80457); superoxide generation, inhibitor; pH 10.0, 25 °C, with: xanthine): 5000 ± 100 nM
CC[C@H](C)[C@H](NC(=O)[C@H](CCC(N)=O)NC(=O)[C@H](CCC(=O)O)NC(=O)[C@H](CCC(=O)O)NC(=O)[C@H](CCCCN)NC(=O)[C@@H]1CCCN1C(=O)[C@H](CC(C)C)NC(=O)[C@H](CO)NC(=O)[C@H](CO)NC(=O)[C@H](CC(C)C)NC(=O)[C@@H](NC(=O)[C@H](C)NC(=O)[C@H](CO)NC(=O)[C@H](CCCNC(=N)N)NC(=O)CNC(=O)CNC(=O)[C@@H](N)CCCNC(=N)N)C(C)C)C(=O)NCC(N)=O  Ki (MC4R (Homo sapiens, UniProt P32245); HEK-293T transfected; 2 h, 37 °C, with: Eu-NDP-MSH): > 5000 nM
O=C(Nc1cccc(-c2nn[nH]n2)c1)c1cc(-n2cnnn2)cc(C(F)(F)F)c1  Ki (Beta-lactamase CTX-M-14; enzyme activity, inhibitor, absorbance; pH 7): 29700 nM
Nc1nc2c(ncn2[C@@H]2O[C@H](COP(=O)(O)OP(=O)(O)O[C@H]3O[C@@H](CNC(=O)C(c4ccccc4)c4ccccc4)[C@@H](O)[C@@H](O)[C@@H]3F)[C@@H](O)[C@H]2O)c(=O)[nH]1  Ki (FUT9; enzyme activity, inhibitor): 3800 nM
CNc1ccccc1C(=O)O[C@H]1[C@@H](O)[C@H](n2ccc(=O)[nH]c2=O)O[C@@H]1COP(=O)(O)OP(=O)(O)O  Ki (Adcy2/ADCY5, C1/C2 domains (Rattus norvegicus, UniProt P26769+P30803); adenylyl cyclase activity, inhibitor, purified enzyme; with: 10 mM MnCl2, 100 µM forskolin, no Gsα-GTPγS): 4700 ± 1200 nM
O=c1[nH]cnc2c(CN[C@H](CO)CC(F)P(=O)(O)O)c[nH]c12 (some centres unmarked)  Ki (Hypoxanthine-guanine-xanthine phosphoribosyltransferase; enzyme activity, inhibitor; pH 7.4): 1.2 nM
N=C(N)NCCCc1c[nH]cn1  Ki (HRH3 (Homo sapiens, UniProt Q9Y5N1); ligand displacement, radioligand; cell membranes): 38 nM
O=C(Nc1cccc(-c2nn[nH]n2)c1)c1cc(-c2cc[nH]n2)cc(C(F)(F)F)c1  Ki (Beta-lactamase CTX-M-14; enzyme activity, inhibitor, absorbance; pH 7): 12600 nM
COC(=O)C1(CCCCl)C=C(C(=O)OC(C)(C)C)C(=O)CC1 (centres unmarked)  Ki (MAPK8; ligand displacement, FP): 47600 nM
COc1cc(CN2CCCC2)ccc1OCCN1CCN(c2cccc3sccc23)CC1  Ki (Htr1a; cell-free assay, radioligand): 355 nM
CN(C)c1ccc(-n2cc(COC(=O)[C@]3(C)C=C(C(=O)OC(C)(C)C)C(=O)CC3)nn2)cc1  Ki (MAPK8; ligand displacement, FP): 2400 nM
CN(C)CCNC(=O)c1cccc2c(NCCCCc3c(N)nc(N)nc3N)c3ccccc3nc12  Ki (Muscleblind-like protein 1, with (CCUG)6 RNA (Homo sapiens, UniProt Q9NR56); MBNL1-RNA binding, gel mobility shift; no tRNA, with: (CCUG)6 RNA, 350 nM MBNL1): 2200 ± 300 nM
CN1CCC=C(c2nsnc2OCCCN2CCN(CCCCC3CCN(CC(=O)N4c5ccccc5NC(=O)c5ccccc54)CC3)CC2)C1  Ki (CHRM4; ligand displacement, radioligand): 2.57 nM
O=C(Nc1cccc(-c2nn[nH]n2)c1)c1cc(-c2ncccn2)cc(C(F)(F)F)c1  Ki (Beta-lactamase CTX-M-14; enzyme activity, inhibitor, absorbance; pH 7): 15300 nM
CN1CCN(Cc2ccc(OCCCN3CCN(c4cccc5sccc45)CC3)cc2)CC1  Ki (Htr1a; cell-free assay, radioligand): 109 nM
Cc1ccc(O)c2c3c(nn12)CCC(C)(NC(=O)c1ccc(-n2cnc4cc(C(=O)O)ccc42)cc1Cl)C3 (centres unmarked)  Ki (Coagulation factor IX (Rattus norvegicus, UniProt P16296); enzyme activity, inhibitor): 21 nM and 22 nM
O=C(Nc1cccc(-c2nn[nH]n2)c1)c1cc(-n2cccn2)cc(C(F)(F)F)c1  Ki (Beta-lactamase CTX-M-14; enzyme activity, inhibitor, absorbance; pH 7): 22500 nM
Nc1nc2c(ncn2[C@@H]2O[C@H](COP(=O)(O)OP(=O)(O)O[C@H]3O[C@@H](CNC(=O)C(c4ccccc4)C4CCCCC4)[C@@H](O)[C@@H](O)[C@@H]3F)[C@@H](O)[C@H]2O)c(=O)[nH]1 (some centres unmarked)  Ki (FUT9; enzyme activity, inhibitor): 5400 nM
COc1cc(CN2CCOCC2)ccc1OCCCN1CCN(c2cccc3sccc23)CC1  Ki (Htr1a; cell-free assay, radioligand): 128 nM

Repeated from above:
COC(=O)C1(CCCCl)C=C(C(=O)OC(C)(C)C)C(=O)CC1 (centres unmarked)  Ki (MAPK8; ligand displacement, FP): 47600 nM
CC(C)C[C@H](NC(=O)[C@H](CCCCN)NC(=O)[C@H](CCCCN)NC(=O)[C@H](C)NC(=O)[C@H](CCCCN)NC(=O)[C@H](CCCCN)NC(=O)[C@@H]1CCCN1C(=O)[C@H](C)NC(=O)[C@H](CCCCN)NC(=O)[C@@H]1CCCN1)C(=O)O  Ki (Cyclin-dependent kinase 5, with p25 (CDK5, Homo sapiens, UniProt Q00535); inhibitor; 0.2 mM Mg2+, with: ATP varied): 600000 ± 300000 nM
Cc1cc(OCCCN2CCN(c3cccc4sccc34)CC2)ccc1CN1CCCC1  Ki (5-hydroxytryptamine receptor 2A (Rattus norvegicus, UniProt P14842); cell-free assay): 276 nM
CNc1ccccc1C(=O)O[C@H]1[C@@H](O)[C@H](n2ccc(=O)[nH]c2=O)O[C@@H]1COP(=O)(O)OP(=O)(O)O  Ki (Adcy2/ADCY5, C1/C2 domains (Rattus norvegicus, UniProt P26769+P30803); adenylyl cyclase activity, inhibitor, purified enzyme; with: 10 mM MnCl2, 100 µM forskolin, no Gsα-GTPγS): 4700 ± 1200 nM
C[C@H](CCC(=O)O)[C@H]1CC[C@H]2[C@@H]3[C@@H](OC(=O)c4ccccc4)C[C@H]4C[C@H](O)CC[C@]4(C)[C@H]3CC[C@]12C  Ki (SLC10A1 (Homo sapiens, UniProt Q14973); transporter uptake, inhibitor, radiometric): 24400 nM
CC(=O)NCC1OC(OP(=O)(O)OP(=O)(O)OCC2OC(n3cnc4c(=O)[nH]c(N)nc43)C(O)C2O)C(F)C(O)C1O (centres unmarked)  Ki (FUT9; enzyme activity, inhibitor): 21500 nM
